Published values collected from several papers.
Target: Serine/threonine-protein kinase RIO2 (RIOK2, Homo sapiens, UniProt Q9BVS4)

For `CCN1CCN(Cc2ccc(C(=O)Nc3ccc(C)c(NCc4cnc5[nH]ccc5c4OC)c3)cc2C(F)(F)F)CC1`, the remaining binding was 28% (binding, competition with immobilised ligand; 1 µM).
For `Cc1cc(NC(=O)[C@H](O)c2cc(F)cc(F)c2)ccc1-c1cnc(N)c(C(=O)NC(C)C)c1`, the remaining binding was 26% (binding, competition with immobilised ligand; 1 µM).
For `COc1cc(Nc2nccc(-c3cnn4nc(OC)ccc34)n2)cc(C(F)(F)F)c1`, the remaining binding was 81% (binding, competition with immobilised ligand; 1 µM).
`CNC1C[S+]2CC[S+]3CC[S+](C1)[Ru-4]321([N]=C=S)[n]2c3ccc(OC)cc3c3c4c(c5cc(F)c[n+]1c5c32)C(=O)NC4=O` (stereo not shown) gave a remaining binding of 100% (KinomeScan; 0.1 µM; reference: untreated).
The remaining binding of `COc1c(Cl)cccc1Nc1c(-c2ccncc2C#C[C@@]2(C)CCCN2C(=O)/C=C/CN(C)C)[nH]c2c1C(=O)NCC2` is reported as 71% (binding, competition with immobilised ligand; 3 µM).
`Nc1ncc2c(n1)-c1c([nH]c3ccc(C4=CCOCC4)cc13)CCC2` has a remaining binding of 40% (binding, competition with immobilised ligand; 1 µM).
`CN1CCN(Cc2ccc(NC(=O)c3cccc(C#Cc4cnc(N)c5ncccc45)c3)cc2C(F)(F)F)CC1` has a remaining binding of 28% (cell-free assay, competition with immobilised ligand; 0.5 µM).
With `CNS(=O)(=O)Nc1nccc(Cc2c(C)c3ccc(Oc4ncccc4F)cc3oc2=O)c1F` the remaining binding was 99% (binding, competition with immobilised ligand; 10 µM).
With `CC(=O)Nc1ccc(-c2ccnc(NCC3CCC3)n2)cc1` the remaining binding was 12% (cell-free assay, competition with immobilised ligand; 10 µM).
For `C=CC(=O)N1CCCC(n2c(=O)c3ncccc3n(Cc3ccc(Oc4ccccc4)cc3)c2=O)C1` (stereo not shown), the remaining binding was 69% (cell-free assay, competition with immobilised ligand; 1 µM).

Some of these lines once more:
`CN1CCN(Cc2ccc(NC(=O)c3cccc(C#Cc4cnc(N)c5ncccc45)c3)cc2C(F)(F)F)CC1` has a remaining binding of 28% (cell-free assay, competition with immobilised ligand; 0.5 µM).
